Experimental data pooled from the literature.
Compare with care: the assays were run in different laboratories. Several values in a cell are separate wells, animals, samples, runs or records. ± marks the error that the study gave.
UniProt P36507, sequence (whole entry, looked up): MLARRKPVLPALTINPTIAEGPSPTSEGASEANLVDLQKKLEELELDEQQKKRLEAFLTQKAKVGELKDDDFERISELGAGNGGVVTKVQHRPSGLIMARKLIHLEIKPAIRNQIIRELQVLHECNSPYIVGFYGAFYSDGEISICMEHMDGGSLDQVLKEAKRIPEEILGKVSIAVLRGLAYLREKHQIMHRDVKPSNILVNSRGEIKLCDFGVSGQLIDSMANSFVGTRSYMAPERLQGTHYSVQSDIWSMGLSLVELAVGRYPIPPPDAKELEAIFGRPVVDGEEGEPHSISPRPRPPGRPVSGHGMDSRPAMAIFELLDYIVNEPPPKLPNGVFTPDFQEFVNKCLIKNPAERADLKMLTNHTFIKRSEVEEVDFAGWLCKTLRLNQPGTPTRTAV
UniProt P18054, sequence (whole entry, looked up): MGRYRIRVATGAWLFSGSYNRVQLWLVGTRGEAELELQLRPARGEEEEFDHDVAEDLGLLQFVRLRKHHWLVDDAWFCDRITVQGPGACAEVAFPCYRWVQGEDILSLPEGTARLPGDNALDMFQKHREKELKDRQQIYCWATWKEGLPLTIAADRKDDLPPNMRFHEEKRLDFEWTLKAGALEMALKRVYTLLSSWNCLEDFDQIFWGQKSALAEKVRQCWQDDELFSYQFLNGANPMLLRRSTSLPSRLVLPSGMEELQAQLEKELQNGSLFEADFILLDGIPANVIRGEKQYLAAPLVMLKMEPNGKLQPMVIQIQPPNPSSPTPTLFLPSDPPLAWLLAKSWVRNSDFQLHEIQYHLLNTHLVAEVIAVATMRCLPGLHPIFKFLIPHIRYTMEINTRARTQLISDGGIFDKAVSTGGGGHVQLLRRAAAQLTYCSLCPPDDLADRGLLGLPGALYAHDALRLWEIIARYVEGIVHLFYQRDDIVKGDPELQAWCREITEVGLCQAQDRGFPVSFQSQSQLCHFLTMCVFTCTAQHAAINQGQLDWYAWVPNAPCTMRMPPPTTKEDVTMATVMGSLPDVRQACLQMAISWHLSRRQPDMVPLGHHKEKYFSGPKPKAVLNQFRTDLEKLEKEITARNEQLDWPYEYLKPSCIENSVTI

O=S(=O)(c1ccc(-c2ccc3ncnc(Nc4ccc(OCc5cccc(F)c5)c(Cl)c4)c3c2)cc1)N1CCCC1 gave an inhibition of 10% (Trypanosoma cruzi; intracellular amastigote growth; NIH 3T3, Tulahuen, β-galactosidase-expressing; 10 µM, 96 h).
The inhibition of CNCCO.O=C(O)C(Cl)Cl is reported as 0% (Solanum nigrum; herbicidal activity; 15 mg/mL, 21 days, pre-emergence greenhouse).
With COc1ccccc1-c1n[nH]c2nc(N[C@H]3CC[C@H](NS(=O)(=O)CC(C)C)CC3)ncc12 the relative abundance was 0.9 (bead binding, competition bead pull-down, refers to: LINJ.24.2330; Leishmania donovani extract; 10 µM; baseline: vehicle).
The inhibition of Cc1cc(-c2ccc3ncnc(Nc4ccc(OCc5cccc(F)c5)c(Cl)c4)c3c2)cnc1N1CCOCC1 is reported as 49% (Trypanosoma cruzi; intracellular amastigote growth, β-galactosidase CPRG; 3T3, Tulahuen, β-galactosidase-expressing; 10 µM, 96 h).
For CCOC(=O)C1(Cc2ccc(-c3ccccc3)cc2)Oc2cc(F)ccc2N(Cc2ccc(-c3ccccc3)cc2)C1=O (stereo not drawn), the inhibition was 51.8 ± 2.08% (Setaria viridis; fresh weight, greenhouse postemergence; postemergence, 150 g ai/ha, 21 days).
For CS(C)(=O)=Nc1ccc(-c2ccc(-c3nc4cc(O[C@@H]5CO[C@H]6[C@@H]5OC[C@H]6O)[nH]c4cc3F)cc2)cc1, the inhibition was -29% (ALOX12 (Homo sapiens, UniProt P18054); enzyme activity, inhibitor; 10 µM).
For COc1ccccc1-c1n[nH]c2nc(NC3CCN(C(=O)Cc4ccc(F)cc4F)CC3)ncc12, the relative abundance was 0.72 (bead binding, competition bead pull-down, refers to: LINJ.33.0950; Leishmania donovani axenic amastigote extract; 10 µM; baseline: vehicle).
For O=C1NC2(CC2)COc2ncc(F)cc2[C@H]2COCCN2c2ccn3ncc1c3n2, “organ-to-brain weight ratio” read 3.95 ± 0.77% (Sprague-Dawley rat, female, adrenals; oral, 5 mg/kg/day, 4 weeks dosing, end of recovery).
For O=C(NNc1ccccc1)c1nnc(C23CC4CC(CC(C4)C2)C3)o1, the inhibition was 49.7% (Rhizoctonia solani; microbial growth; 50 µg/mL).
For CCc1nn(C)c2nc(-c3ccc(C(=O)O)cc3)nc(NCc3ccccc3)c12, the inhibition was -14.5% and 1.87% (Cryptosporidium parvum; parasite growth, immunofluorescence imaging; HCT-8, Iowa; 24.7 nM).
For CCOC(=O)C1(Cc2cc(F)cc(F)c2)Oc2cc(F)ccc2N(Cc2cc(F)cc(F)c2)C1=O (stereo not drawn), the inhibition was 33.7 ± 1.2% (Setaria viridis; fresh weight, greenhouse postemergence; postemergence, 150 g ai/ha, 21 days).
For O=S(=O)(c1ccc(-c2ccc3ncnc(Nc4ccc(O)c(Cl)c4)c3c2)cc1)N1CCOCC1, the inhibition was 14% (Trypanosoma cruzi; intracellular amastigote growth, β-galactosidase CPRG; 3T3, Tulahuen, β-galactosidase-expressing; 10 µM, 96 h).
CN(C)[C@H]1C[C@@]23CC[C@@]4(O2)C(=CC[C@]2(C)[C@@H](c5ccc6ccncc6c5)CC[C@H]24)C=C3[C@@H](O)[C@@H]1O has an inhibition of -2.9% (MAP2K2 (Homo sapiens, UniProt P36507); ATP probe labelling, inhibitor, KiNativ profiling; 0.1 µM).
CC(O)CN(CC(C)O)CC(C)O.O=C(O)C(Cl)Cl (stereo not drawn) has an inhibition of -60% (Chenopodium album; herbicidal activity; 15 mg/mL, 21 days, post-emergence greenhouse).
The inhibition of CCOC(=O)C1(Cc2ccc(C#N)cc2)Oc2cc(F)ccc2N(Cc2ccc(C#N)cc2)C1=O (stereo not drawn) is reported as 61.5 ± 0.89% (Setaria viridis; fresh weight, greenhouse postemergence; postemergence, 150 g ai/ha, 21 days).
CC(C)[C@H]1NC(=O)C[C@H]2/C=C/CCSSC[C@@H](NC1=O)C(=O)N[C@H](Cc1cccc3ccccc13)C(=O)NCC(=O)O2 has an inhibition of -6.4% (EGFR (Homo sapiens, UniProt P00533, L861Q); enzyme activity, inhibitor; 10 µM).
The inhibition of COc1cc(Nc2ncnc3ccc(-c4ccc(S(=O)(=O)N5CCOCC5)cc4)cc23)ccc1OCc1cccc(F)c1 is reported as 2% (Trypanosoma cruzi; intracellular amastigote growth, β-galactosidase CPRG; 3T3, Tulahuen, β-galactosidase-expressing; 10 µM, 96 h).
CCOC(=O)C1(Cc2ccccc2)Oc2cc(OC)ccc2N(Cc2ccccc2)C1=O (stereo not drawn) has an inhibition of 43.7 ± 1.61% (Setaria viridis; fresh weight, greenhouse postemergence; postemergence, 150 g ai/ha, 21 days).

A few entries again:
O=S(=O)(c1ccc(-c2ccc3ncnc(Nc4ccc(OCc5cccc(F)c5)c(Cl)c4)c3c2)cc1)N1CCCC1 gave an inhibition of 10% (Trypanosoma cruzi; intracellular amastigote growth; NIH 3T3, Tulahuen, β-galactosidase-expressing; 10 µM, 96 h).
